{"data": "Assay results collected from several papers", "cell line": "A549", "note": "Each line is one published result; not all experiments were run side by side. ± gives the spread as reported."}
{"Compound": "COc1cc(/C=C/C(=O)CC(C)=O)ccc1O", "assay": "PI staining flow cytometry", "conditions": "50 µM, 48 h", "measurement": "cells in pre-G1 phase", "result": "54.5%"}
{"Compound": "Cc1cc(=O)oc2cc(OCCCCCCSC#N)ccc12", "assay": "cell growth or viability, SRB", "measurement": "GI50", "result": "3.5 µM"}
{"Compound": "COC(=O)c1cc(NC2=NC(=O)C(=Cc3ccc(N(C)C)cc3)S2)ccc1OC(C)=O", "assay": "measured: TNFRSF10C", "conditions": "2.93 µM, 24 h", "how to read": "relative to: DMSO", "measurement": "mRNA level", "result": "802 fold change"}
{"Compound": "COc1c(C)c(OS(=O)(=O)c2ccccc2)c(C)c(O)c1C(=O)/C=C/c1ccccc1", "how to read": "relative to: CL over A549", "measurement": "selectivity index", "result": 1.1}
{"Compound": "CCNc1cc2c(cc1C)C1(c3cc(C)c(NCC)cc3O2)c2ccccc2C(=O)N1N=Cc1c[c-]c(-c2ccccn2)cc1.Cc1c(C)c(-c2ccc(-c3ccccc3)cc2)[c-](C)c1C.[Cl-].[Ir+3]", "assay": "PI flow cytometry", "conditions": "0.5 x IC50, 24 h", "measurement": "G2/M phase cells", "result": "12.91 ± 0.01%"}
{"Compound": "NC1=C(Cl)C(=O)c2ccccc2C1=O", "assay": "MTT", "how to read": "relative to: IC50 MRC-5 over IC50 A549", "measurement": "selectivity index", "result": 1.13}
{"Compound": "Cc1cc(/C=C/c2ccc(O)c(O)c2)[nH]n1", "assay": "PI staining flow cytometry", "conditions": "50 µM, 48 h", "measurement": "cells in S phase", "result": "6.07%"}
{"Compound": "CC(C)(COP(=O)(O)OP(=O)(O)OC[C@H]1O[C@@H](n2cnc3c(N)ncnc32)[C@H](O)[C@@H]1OP(=O)(O)O)[C@@H](O)C(=O)NCCC(=O)NCCSCCC(=O)N[C@@H](CO)C(=O)NCC(=O)N[C@@H](CCCNC(=N)N)C(=O)NCC(=O)N[C@@H](CCCCN)C(=O)NCCCC[C@H](NC(=O)CC[C@@H]1NC(=O)[C@@H](CCCNC(=N)N)NC(=O)[C@H](CCCNC(=N)N)NC(=O)[C@@H](CCCNC(=N)N)NC(=O)[C@H](CCCNC(=N)N)NC(=O)[C@H](Cc2csc3ccccc23)NC(=O)[C@@H](Cc2ccccc2)NC(=O)[C@H](Cc2ccccc2)NC1=O)C(N)=O", "assay": "histone H4 Nα-acetylation, Western blot, measured: histone H4 Nα-acetylation", "conditions": "2 days", "measurement": "EC50", "result": "3.6 µM"}
{"Compound": "N#CSCCCCCCOc1ccc2c(-c3ccccc3)cc(=O)oc2c1", "assay": "cell growth or viability, SRB", "measurement": "GI50", "result": "24 µM"}
{"Compound": "NC1=C(Cl)C(=O)c2cccc([N+](=O)[O-])c2C1=O", "assay": "MTT", "how to read": "relative to: IC50 MRC-5 over IC50 A549", "measurement": "selectivity index", "result": 0.36}
{"Compound": "CCN(C(=O)c1cc(F)ccc1Oc1nncnc1N1CCC2(C1)CN([C@H](CCCN(C)CCOC)C(C)C)C2)C(C)C", "assay": "cell growth or viability", "conditions": "7 days", "measurement": "GI50", "result": "> 10 µM"}
{"Compound": "Nc1ccc[n+]([Pt-2]([Cl])([Cl])[n+]2cccc(N)c2Cl)c1Cl", "assay": "cell viability, MTT", "conditions": "48 h", "measurement": "IC25", "result": "23 µM"}
{"Compound": "COc1cc(/C=C/c2cc(C)n[nH]2)ccc1O", "assay": "PI staining flow cytometry", "conditions": "50 µM, 48 h", "measurement": "cells in pre-G1 phase", "result": "16.5%"}
{"Compound": "COc1c(C)c(OC(=O)c2ccccc2)c(C)c(OC(=O)c2ccccc2)c1C(=O)/C=C/c1ccccc1", "how to read": "relative to: CL over A549", "measurement": "selectivity index", "result": 0.82}
{"Compound": "CN(C)CCN1CCN(c2ccc3nc(-c4ccc5nc(-c6ccc(C(F)(F)F)cc6)[nH]c5c4)[nH]c3c2)CC1", "assay": "SRB", "conditions": "10 µM, 48 h", "measurement": "growth percent", "result": "83.8%"}
{"Compound": "C[C@H]1O[C@@H]2C3=C(O[C@]2(C)[C@@]1(O)C=O)C(=O)c1c(O)cccc1C3=O", "assay": "cell growth or viability, MTT", "conditions": "48 h", "measurement": "EC50", "result": "10.6 µM"}
{"Compound": "C1=[N+]2CCCC[N+]3=Cc4ccc5[n]4[Au-]23[n]2c1ccc2-c1nc2ccccc2nc1-5.F[P-](F)(F)(F)(F)F", "assay": "NCI60 five-dose screen", "measurement": "TGI", "result": "4 -log M"}
{"Compound": "O=[C]=[Mn-2]12(=[C]=O)(=[C]=O)[O]c3cc4c(cc3=[N+]1CCc1ccccc1)[O][Mn-2](=[C]=O)(=[C]=O)(=[C]=O)([N+]=4CCc1ccccc1)[n+]1ccc(cc1)C(=O)OCCOC(=O)c1cc[n+]2cc1", "assay": "MTT", "conditions": "50 µM, 48 h, photolysed compound", "measurement": "viability reduction", "result": "89%"}
{"Compound": "CCCC[C@H]1C(=O)N(C)[C@@H](CCCC)C(=O)N[C@@H](CCCCNC(=S)Nc2ccc(CN3CCN(CC(=O)O)CCN(CC(=O)O)CC3)cc2)C(=O)N[C@H](C(=O)NCC(N)=O)CSCC(=O)N[C@@H](Cc2ccc(O)cc2)C(=O)N(C)[C@@H](C)C(=O)N[C@@H](CC(N)=O)C(=O)N2CCC[C@H]2C(=O)N[C@@H](Cc2c[nH]cn2)C(=O)N[C@@H](CCC(=O)O)C(=O)N2C[C@H](O)C[C@H]2C(=O)N[C@@H](Cc2c[nH]c3ccccc23)C(=O)N[C@@H](CO)C(=O)N[C@@H](Cc2cn(CC(=O)O)c3ccccc23)C(=O)N1C [fluorine-18 labelled]", "assay": "binding", "conditions": "concentration not given, 30 min, 4 °C", "how to read": "relative to: added activity", "measurement": "cell-bound activity", "result": "0.62 ± 0.11%"}
{"Compound": "CCCC[N+]1=c2cc3c4cc2[O][Mn-2]1(=[C]=O)(=[C]=O)(=[C]=O)[n+]1ccc(cc1)C(=O)NCCNC(=O)c1cc[n+](cc1)[Mn-2](=[C]=O)(=[C]=O)(=[C]=O)([O]3)[N+]=4CCCC", "assay": "MTT", "conditions": "50 µM, 48 h, photolysed compound", "measurement": "viability reduction", "result": "93%"}
{"Compound": "Cc1ccc(C(=O)/C=C/c2ccccc2)s1", "assay": "SRB", "conditions": "10 µM", "measurement": "growth inhibition", "result": "< 0%"}
{"Compound": "O=[C]=[Mn-2]12(=[C]=O)(=[C]=O)[O]c3cc4c(cc3=[N+]1CCc1ccccc1)[O][Mn-2](=[C]=O)(=[C]=O)(=[C]=O)([N+]=4CCc1ccccc1)[n+]1ccc(cc1)C(=O)Oc1ccccc1OC(=O)c1cc[n+]2cc1", "assay": "MTT", "conditions": "50 µM, 48 h, photolysed compound", "measurement": "viability reduction", "result": "87%"}
{"Compound": "O=C(NCc1cc(F)cc(F)c1)[C@@]1(O)CCN(c2ccc3[nH]ccc3c2)C1=O", "assay": "colony formation, soft agar clonogenic", "conditions": "concentration not given", "measurement": "efficacy", "result": "44%"}
{"note": "For quick reference, copied from above:"}
{"Compound": "C1=[N+]2CCCC[N+]3=Cc4ccc5[n]4[Au-]23[n]2c1ccc2-c1nc2ccccc2nc1-5.F[P-](F)(F)(F)(F)F", "assay": "NCI60 five-dose screen", "measurement": "TGI", "result": "4 -log M"}
